{"data": "Assay results gathered from unrelated publications", "note": "Numbered parts are unrelated; each lists some results of a single study. Substitutions count along the parent as printed."}
{"data": "Study 1", "target": "Interferon regulatory factor 5, full length, phosphomimetic (IRF5, Homo sapiens, UniProt Q13568-2, residues 1-514, K96S/S451D/S453D/S456D/S462D)", "technique": "protein-binding microarray", "molecule type": "double-stranded DNA, one strand shown", "matrix": "in vitro", "concentration": "250 nM", "setting": "60-bp whole probe", "with": "salmon DNA 0.4 mg/ml", "baseline": "random background probes", "reading": "higher = stronger binding", "all sequences stand within": "GCCTAGCAC … GTCTTGATTCGCTTGACGCTGCTG"}
{"Strand": "GACGGTCTCGGGTATCGGGACGTGCTA", "log fluorescence": "0.536 z-score"}
{"Strand": "GACGATTTCCGTTCCGAGACGTGCTAG", "log fluorescence": "0.559 z-score"}
{"Strand": "TTAGATTTCAGTAACGATTAGTGCTAG", "log fluorescence": "1.75 z-score"}
{"Strand": "GCCGATATCAGTATCGAGACGTGCTAG", "log fluorescence": "4.06 z-score"}
{"Strand": "GACGGTTTCCTTCACCTGACGTGCTAG", "log fluorescence": "0.819 z-score"}
{"Strand": "GACGGACTGGACACTGGGGAGGTGCTA", "log fluorescence": "-0.523 z-score"}
{"Strand": "TTAGGTTTCCTTTTACTTTAGTGCTAG", "log fluorescence": "1.73 z-score"}
{"Strand": "AACGGACTGCTTTTCCTGACGTGCTAG", "log fluorescence": "-0.128 z-score"}
{"Strand": "TTAGATTTCAGCCTGGATTAGTGCTAG", "log fluorescence": "0.724 z-score"}
{"Strand": "CTGCCTGGCCAAGCCCAGATGTGCTAG", "log fluorescence": "-0.958 z-score"}
{"Strand": "GAAGATATCAGTTTCGAGACGTGCTAG", "log fluorescence": "6.51 z-score"}
{"Strand": "GACGGTCTCCTGATCCTGACGTGCTAG", "log fluorescence": "-0.667 z-score"}
{"Strand": "GACGGTATCGGTATCGTGACGTGCTAG", "log fluorescence": "5.53 z-score"}
{"Strand": "TCAGGTTTCGGTATCGGTTAGTGCTAG", "log fluorescence": "11 z-score"}
{"Strand": "TTAGGTTTCGACTATCGGTTAGTGCTA", "log fluorescence": "8.79 z-score"}
{"Strand": "TTTCTTACATGCATCATAACGTGCTAG", "log fluorescence": "3.6 z-score"}
{"Strand": "CACGGTATCGGGACTGGGGACGTGCTA", "log fluorescence": "0.864 z-score"}
{"data": "Study 2", "target": "CCNE2, cyclin fold, Cln2 fusion (human)", "technique": "yeast growth competition, sequencing", "matrix": "yeast", "setting": "strong parent motif", "baseline": "not given", "reading": "higher = stronger binding", "parent": "E2F1 docking peptide (human); PPVKRRLDLETDH"}
{"Change": "D12F", "normalised enrichment score": 3.18}
{"Change": "R5A L7A", "normalised enrichment score": -0.202}
{"Change": "H13V", "normalised enrichment score": 0.773}
{"Change": "L7Q", "normalised enrichment score": 0.374}
{"Change": "V3R", "normalised enrichment score": 1.33}
{"Change": "T11Y", "normalised enrichment score": 2.17}
{"Change": "T11S", "normalised enrichment score": 1.71}
{"Change": "K4P", "normalised enrichment score": -0.236}
{"Change": "V3M", "normalised enrichment score": 0.26}
{"Change": "V3G", "normalised enrichment score": -0.364}
{"Change": "T11E", "normalised enrichment score": 0.615}
{"Change": "D12C", "normalised enrichment score": 1.55}
{"data": "Study 3", "target": "Histone acetyltransferase KAT6A, winged helix 1, GST fusion (KAT6A, Homo sapiens, UniProt Q92794, residues 1-85)", "technique": "protein binding microarray", "molecule type": "double-stranded DNA, one strand shown", "matrix": "in vitro", "concentration": "not given", "setting": "8-mer, flanks averaged, mean of 2 arrays, mostly near background", "baseline": "not given", "reading": "higher = stronger binding", "Residues (chain)": "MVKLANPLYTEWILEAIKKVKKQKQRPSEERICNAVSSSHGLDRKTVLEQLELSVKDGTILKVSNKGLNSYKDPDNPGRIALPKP"}
{"Strand": "ACTCCCTA", "E-score": -0.155}
{"Strand": "ATTGGCTG", "E-score": -0.155}
{"Strand": "CGCTCGGA", "E-score": 0.302}
{"Strand": "AATAGACG", "E-score": 0.0186}
{"Strand": "GGGTTACC", "E-score": 0.179}
{"Strand": "AACTCCTC", "E-score": -0.181}
{"Strand": "CTTAGGCC", "E-score": -0.11}
{"Strand": "CAGGATCG", "E-score": -0.0926}
{"Strand": "TCGCAACA", "E-score": -0.00407}
{"Strand": "GCAAGTGC", "E-score": -0.0203}
{"Strand": "GACGGGCC", "E-score": 0.418}
{"Strand": "AGTACCGG", "E-score": 0.116}
{"Strand": "GATAGGAC", "E-score": -0.032}
{"Strand": "CGTTGAGA", "E-score": 0.0983}
{"Strand": "CCTCGCGA", "E-score": 0.218}
{"data": "Mixed results"}
{"Molecule": "PhoQ, residues 284 288 289 292 302 303 NSMLDC", "target": "PhoP, residues 12 14 15 18 19 TQAIL (Escherichia coli, UniProt P23836)", "assay": "Sort-seq, refers to: YFP reporter", "test system": "E. coli", "conditions": "PhoQ-PhoP variant library, with: 10 µM Mg2+", "scale": "baseline: high Mg2+ state, higher = stronger signaling", "measurement": "fold induction", "value": 20.3}
